Published values pooled from the literature.
Every numbered part comes from another study and shows a few of its results, in no order.

Study 1 — method: protein-binding microarray; form: double-stranded DNA, one strand shown; matrix: in vitro; tested at: not given; direction: higher = stronger binding
Target: Protein C-ets-1 (ETS1, Homo sapiens, UniProt P14921, residues 1-441, K379A, full length assumed)
Setting: k-mer, scored over probes, only values ≥0.25
Residues (chain): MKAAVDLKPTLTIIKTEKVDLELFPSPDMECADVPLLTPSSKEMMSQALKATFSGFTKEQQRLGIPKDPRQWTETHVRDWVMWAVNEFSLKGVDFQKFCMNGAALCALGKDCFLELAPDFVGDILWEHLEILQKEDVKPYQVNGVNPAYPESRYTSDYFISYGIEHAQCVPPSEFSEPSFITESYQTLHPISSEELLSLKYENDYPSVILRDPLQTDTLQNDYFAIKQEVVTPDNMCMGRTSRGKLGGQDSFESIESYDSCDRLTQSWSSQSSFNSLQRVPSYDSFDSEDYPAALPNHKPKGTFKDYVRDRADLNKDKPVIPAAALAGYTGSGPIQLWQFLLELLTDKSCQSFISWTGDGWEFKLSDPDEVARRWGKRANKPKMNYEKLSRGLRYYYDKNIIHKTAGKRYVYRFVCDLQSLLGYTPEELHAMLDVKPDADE
Sequence	E-score
CGGTATGA	0.264
GGATGTCA	0.281
TACATATA	0.282
CCGGGGAC	0.367
CGACGTCG	0.31
ACCGGACG	0.31

Study 2 — method: protein-binding microarray; form: double-stranded DNA, one strand shown; matrix: in vitro; tested at: 940 nM top; setting: 60-bp whole probe; together with: salmon DNA 0.4 mg/ml; relative to: random background probes; direction: higher = stronger binding; all sequences stand within: GCCTAGCAC … GTCTTGATTCGCTTGACGCTGCTG
Target: Interferon regulatory factor 5, full length, phosphomimetic (IRF5, Homo sapiens, UniProt Q13568-2, residues 1-514, S451D/S453D/S456D/S462D)
Sequence	fitted relative affinity [z-score]
GACGATATCGCGACTGGAGACGTGCTA	-0.165
TTAGGTTTCGGTTCGGGTTAGTGCTAG	14.9
TAAGGACTGGGGTATCGGTTAGTGCTA	2.51
GACGATTCCAGTTTCGAGCCGTGCTAG	3.42
GACGGACTGGACTATCGTGACGTGCTA	-0.749
TCAACTTTCCAAAACATACTGTGCTAG	1.07

Study 3 — method: RNAcompete; form: RNA; matrix: in vitro; tested at: 20 nM; setting: 7-mer, probes averaged, single round; relative to: mean of 7-mers; direction: higher = stronger binding
Target: PABPC1L2, full length, GST fusion (mouse, UniProt A0ABA7IW68)
Construct (chain): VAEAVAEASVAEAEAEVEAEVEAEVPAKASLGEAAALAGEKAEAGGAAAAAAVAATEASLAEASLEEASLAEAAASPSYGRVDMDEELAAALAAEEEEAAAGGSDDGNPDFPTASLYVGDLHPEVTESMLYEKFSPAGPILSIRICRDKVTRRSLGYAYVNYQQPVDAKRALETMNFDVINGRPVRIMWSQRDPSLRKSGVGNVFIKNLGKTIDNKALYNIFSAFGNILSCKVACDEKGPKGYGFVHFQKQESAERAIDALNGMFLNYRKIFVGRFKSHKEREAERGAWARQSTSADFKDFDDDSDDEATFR
Sequence	7-mer Z-score
UGUGUAA	-0.209
UCUAUGU	-0.347
CCCGUUA	-0.362
CUCUUAC	-0.389

Other studies, line by line
Substance	target	assay	system	conditions	scale	endpoint	value
PhoQ, residues 284 288 289 292 302 303 TSTLRA	PhoP, residues 12 14 15 18 19 AGCRL (Escherichia coli, UniProt P23836)	Sort-seq, measured: YFP reporter	E. coli	PhoQ-PhoP variant library, together with: 10 µM Mg2+	relative to: high Mg2+ state, higher = stronger signaling	fold induction	1.36

A few entries again (study 2):
Sequence	fitted relative affinity [z-score]
TCAACTTTCCAAAACATACTGTGCTAG	1.07
